# Experimental data collected from several papers.
# Parts stem from different laboratories: compare values within a part only.

# Block 1
# Target: RNA binding protein fox-1 homolog 2, RRM domain, GST-SBP tag (RBFOX2, Homo sapiens, UniProt O43251-10, residues 100-194)
# Method: RNA Bind-n-Seq
# Molecule type: RNA
# Sample: in vitro
# Tested at: 365 nM
# Notes: natural RNA segment, single round, ends assumed
# Baseline: no-protein control
# Reading: higher = stronger binding
# Constant ends, left off below: GGGAGUUCUACAGUCCGACGAUC … UGGAAUUCUCGGGUGCCAA
# Construct (chain): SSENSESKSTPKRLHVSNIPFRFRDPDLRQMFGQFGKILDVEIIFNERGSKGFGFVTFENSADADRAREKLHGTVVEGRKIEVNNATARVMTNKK
Oligonucleotide,RBNS enrichment (R)
GUAAAAUAUUGAAGUGUCUAACAAAUGGCAUUGAAGUGUCUUUAAUAAAGGUUCAUUUAUAAAUGUCGUAUAGUUGGUGGUCCUUCUUUUACAAACGCAGUCAUUCUGCC,0.245
CGUGCAGACAUGUGACAGGAUUGUCUCUCAACAGCACAAGUACUUCAAUGCCUACCGUCGGCCCACCUGAGCGGUCUUCACCUUUGCCAACUUUGACGGAUUUCUGUGUG,0.394
AAUGUCGUAAGCACAAUUAGACUUCUUCCGGCUUGAGUUUGCUGCCUCCUACAGCAAGGACAGGAAUCAGACCGACUCCCUAGCUUACGCUCUGGGAGGGGUACUGGGUA,0.221
CAAAAGUGAAUCGGGGUGCGGAGAGUGGGAACCUUUUGAAUUUAUGAUUGUCACAGAGAUGGUAGAAAUUAUGAUCUGACUGGAAAACAAUCCUGUAUCCCCUCCCAAAG,0.28
GCUACAGUUCCCAGCUGCUGUAACAGAGCCACCUCCACCUCUAACAAUAAACCAAGUUCAUUGCAGAUGGUGUGGUGCUGCCUAGGCUUUCCAAGGCUCCUCCAGACAGU,0.218
UCUUAGGGACUCUUGCUGCUAUGCUUGCCAGCAAAUGGCAAUCAAGGGACAAUUAGCCACUUGCCCCGACACAGGUCAGCAUCAGGGCCAGAUCCCUUGCACACAGCCCA,0.645
AAAUCAAAUAGAAUCUUAUAUCUGUAUGUUAAAAUAGAGCACUUACCUGAAGUCAGUGGCCUGGAUCAUAGCCCUGGAUCAUUUCCCAGUCUGUCCUGUGCUGUGUGACC,0.923
UGGCUCUCAUUUGCCUCCUCAGAAGAGUGGGACAGGGCUCCAUGGGAGACCCAGAGUUCAGGCUACACACAGCUGUAAAACAGCCCCAAUCCUGACUCUGGCUAUUCGCU,0.205

# Block 2
# Target: Centromere-binding protein 1, full length, His-tagged (CBF1, Saccharomyces cerevisiae, UniProt P17106, residues 1-351)
# UniProt P17106, sequence (whole entry, looked up): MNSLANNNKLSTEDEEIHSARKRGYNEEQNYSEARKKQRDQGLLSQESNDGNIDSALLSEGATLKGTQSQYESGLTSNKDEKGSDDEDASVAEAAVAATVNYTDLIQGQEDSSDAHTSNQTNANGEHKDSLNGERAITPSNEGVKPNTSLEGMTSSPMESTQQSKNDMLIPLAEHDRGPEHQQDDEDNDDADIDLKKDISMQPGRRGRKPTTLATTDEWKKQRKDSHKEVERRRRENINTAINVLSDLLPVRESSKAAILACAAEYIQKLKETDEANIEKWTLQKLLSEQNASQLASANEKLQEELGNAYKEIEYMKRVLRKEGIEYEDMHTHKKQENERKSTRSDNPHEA
# Method: competition protein-binding microarray
# Molecule type: double-stranded DNA, one strand shown
# Sample: in vitro
# Tested at: 2 µM
# Notes: whole 60-bp probe, lowest competitor level
# With: Pho4 competitor, 0.05 µM
# Reading: higher = stronger binding
# Constant ends, left off below: … GTCTTGATTCGCTTGACGCTGCTG
Oligonucleotide,fluorescence intensity [a.u.]
CATACCCAACCTTGATCAGTGGGTGAAGATATTTGT,69.8
TCTAACATATCCTTTCTCATGACAGTATTCATGGAT,82.7
TAGGATGACCGTCACCATGTGATCCAAATGCACTCA,1080
AAATTACTAAGTTGGCAGGTGGGTGACGCCGTATGA,61.7
AAATTACTAAGTTTTCACGTGTCCTACCCCGTATGA,1180
AAATTACTAAGTTGTCACGGTACTTACCCCGTATGA,248
CATACCCAACCTTGAGTAGTGGGTGAAGATATTTGT,63.7
ACCCCGCTTCCACCGCCGTTGTTGTTGTTGTTGTTG,79.4
CGGGGTTAAGTTTGAAACGTGGGTGGCTTGCAGCAG,91.4
CGACTGCGCTGTAACCATGCGTGGACCAGCCAATTT,63
CTTTCCCGATCTTGCGATGTGGGTGTAGCACATTTG,84.6
TGCGCAACAACTTGTCACGTCACTTTATGTCTAGAA,143
ACTGTTATTTTGATGTACATGACAGTACGTTATTCT,93.2
CAACAAATAGTAGCTCGCGTGGCCGAATGGCAACGC,65.4
AGGTCCGCTGGAAAGCACGATCTCCGACGTAGTGGA,58
CGTCCTAGCGATTGATACGTGGGTGCCATGAGGAAG,98.7
AAAGCGGTAATTTGCGCGGTGGGTGCAGATATCTAT,72.4
CATTGGCAGAACCCGATCGTGGGACAGAACACCAAC,62.8
CGGGGTTAAGTTTGGCGCGTGGGTGGCTTGCAGCAG,96.2

# Block 3
# Target: Ras GTPase-activating protein-binding protein 1, C-terminal RGG region (G3BP1, Homo sapiens, UniProt Q13283)
# UniProt Q13283, sequence (whole entry, looked up): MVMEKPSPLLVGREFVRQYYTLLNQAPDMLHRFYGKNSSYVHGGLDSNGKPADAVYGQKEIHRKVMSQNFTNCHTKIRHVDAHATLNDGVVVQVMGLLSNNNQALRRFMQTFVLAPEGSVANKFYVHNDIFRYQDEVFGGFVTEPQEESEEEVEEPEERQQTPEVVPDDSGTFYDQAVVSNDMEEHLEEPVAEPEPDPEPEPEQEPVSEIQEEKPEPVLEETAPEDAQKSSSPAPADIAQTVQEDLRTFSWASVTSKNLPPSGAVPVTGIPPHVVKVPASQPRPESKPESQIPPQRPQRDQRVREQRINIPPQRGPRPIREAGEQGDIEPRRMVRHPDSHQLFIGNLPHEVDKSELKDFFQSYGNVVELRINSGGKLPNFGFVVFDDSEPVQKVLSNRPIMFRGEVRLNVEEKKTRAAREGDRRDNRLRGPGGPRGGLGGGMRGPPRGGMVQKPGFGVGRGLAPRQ
# Method: RNA Bind-n-Seq
# Molecule type: RNA
# Sample: in vitro
# Tested at: 1 µM
# Notes: whole 134-nt RNA, ends assumed
# With: 150 mM KCl
# Baseline: input library
# Reading: higher = stronger binding
# Constant ends, left off below: GGGAGUUCUACAGUCCGACGAUC … UGGAAUUCUCGGGUGUCAAGG
Oligonucleotide,log2 enrichment
AAGUCCUGUGCUACACAUCGUAUGUACCGAAUCGGGAAAAGGGGAAAAGGAAAAGGAAAGUAUUAUGUUACGCCGUUCGGAUCUGCACUU,-1.63
UGGGAGGUGGAUUUUGUUUAUUUGUUUAGCUCAUUUCCAGGGGUGGGAAUUUUUUUUUAAUAUGUGUCAUGAAUAAAGUUGUUUUUGAAA,2.91
UCCUGUGCUACACAUCGUAUGUACCGAAUCGGGCCCCCGGGGCCCCCGGGGCCCCCGGGAAAGUAUUAUGUUACGCCGUUCGGAUCUGCA,-1.79
UGGCCCUGGUGGCAUGCGGGGAGGAAGACGUGGCCUCAUGGAUCGUGGUGGUCCCGGUGGAAUGUUCAGAGGUGGCCGUGGUGGAGACAG,1.98
UAACUUUAGAGGAGGAUCUGAUGGAUAUGGCAGUGGACGCGGAUUUGGGGAUGGCUAUAAUGGGUAUGGAGGAGGACCUGGAGGUGGCAA,-0.937
GCAGGAAGUAAAAACAAACGGAAAUGCUUCGGAUAGUGGCAGGGGUGGGGGUUGCUAAGGAAAGGGUGGGAUGGGAGUGGGUAAAGAGUU,1.62
CACAGACAACACGCACCCACACAGACACAGAGGGAAGGGGUUGGGAUGGGGACAGGGUGCACAGCAGGGCGGGGUAAAACCCCAGCCCCU,-0.139
UCCUGUGCUACACAUCGUAUGUACCGAAUCGGGAAAAAGGGAAAAAAAGGGAAAAAGGGAAAGUAUUAUGUUACGCCGUUCGGAUCUGCA,-0.703
CACAGACAACACGCACCCACACAGACACAGAGGGAAAAGGUUGGGAUGGGGACAGGGUGCACAGCAGGGCGGGGUAGGACCCCAGCCCCU,-0.16

# Block 4
# Target: RING finger protein unkempt homolog, zinc fingers 1-6, GST-SBP tag (UNK, Homo sapiens, UniProt Q9C0B0, residues 30-357)
# UniProt Q9C0B0, sequence (30-357, looked up): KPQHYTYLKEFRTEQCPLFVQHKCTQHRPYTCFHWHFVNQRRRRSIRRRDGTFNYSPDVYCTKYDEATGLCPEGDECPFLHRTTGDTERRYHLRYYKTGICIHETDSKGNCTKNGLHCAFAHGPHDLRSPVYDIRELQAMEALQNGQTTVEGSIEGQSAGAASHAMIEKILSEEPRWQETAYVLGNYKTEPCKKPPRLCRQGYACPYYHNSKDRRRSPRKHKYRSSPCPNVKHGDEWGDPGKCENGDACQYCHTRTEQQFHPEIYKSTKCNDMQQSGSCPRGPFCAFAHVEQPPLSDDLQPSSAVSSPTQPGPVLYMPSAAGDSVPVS
# Method: RNA Bind-n-Seq
# Molecule type: RNA
# Sample: in vitro
# Tested at: not given
# Notes: RNA with constant flanks, human and mouse sites, ends assumed
# Baseline: input RNA pool
# Reading: higher = stronger binding
# Constant ends, left off below: GGGAGUUCUACAGUCCGACGAUC … CAACAGAGGAUUGAGCAUCA
Oligonucleotide,bound/input enrichment
CUGCGGGCCACAGGGCAAAAUCGCCAUAGGCCAAGGUGCAUAUAGAAAACAAAGGAGCAUUAAGCCCAAUCUAUGUCGUGUUUUCAAGGAAGAAAACGGAAAUGUGUAGUCAAGCUUUUU,0.59 ratio
GUGUUGAGUUGGCAUUGUACAGAAAUUAACAGCCAUAUUGGUCUAGAAAUGUUGAACUUAAUUUUUUUUUCCAUUUGUACAGGGGUAACGCACUGUAUUAAAUAUGUAAGGUCUUAUCUA,0.591 ratio
AUAUCUUCCGAAGAGGGAGAGACGGAAGCUAAUAAUCACAAGAAGUUGUCAGAAUUUGGAAUUAGAAAUGGCAGCCGGCUUCAAGCAGAUGACUUCCUCCAGGACUAUACUUUAUUGAUC,0.363 ratio
CACAUCAAAGCAAUUCAGAUUAAAGAACAACUUCUUGGUCAAGAAGAUUAUGAAGUAGCCCUUUCAGUGGGACAUCUGGCUUCUUUAUAUAAUUAUGACAUGAAUCAGUAUGAAAAUGCU,0.94 ratio
CGGUAGUCAGCAAAUUAGAGAGCACAAAUGGCACUAUUGAUCCAGCAGUGACUAGAGAAUGUGAGAGUGACAGCUCUGCUGAUGAGUUAUGUGUAAAGUCUGAACCUUCUGAUACAGCGG,0.455 ratio
ACCCUUUCUGGGGUCCAAGAAGAAUCUGCCCUUUGCUAUCUUCUCCAAGUUGAUGAGUUUAGAUUUUUAUUGGACUGUGGCUGGGAUGAGCACUUUUCUAUGGAUAUUAUUGAUUCCCUG,0.455 ratio
UCCGUGCCAGCGCCCUGUGCUGUGUCGGCAGCAUUUGAACGUUCCCCUUCCCCGGUCCAUUUACCUGAGGAUCCCAAGGUGGCAGAAAAGCAGAGGGAAACUCAGAGUGUGGACAGACUC,0.135 ratio
CAGGGACGUUUUGAUGUAAAAAUUGAAGUUAAGAGCUGAUCACAAGCACAAAUCUUUCCCACUAGCCAUUUAAUAAGUUAAAAAAAGAUACAAAAACAAAAACCUACUAGUCUUGAACAA,87.6 ratio

# A few entries again (block 2):
Oligonucleotide,fluorescence intensity [a.u.]
ACTGTTATTTTGATGTACATGACAGTACGTTATTCT,93.2
CAACAAATAGTAGCTCGCGTGGCCGAATGGCAACGC,65.4
AGGTCCGCTGGAAAGCACGATCTCCGACGTAGTGGA,58
CGTCCTAGCGATTGATACGTGGGTGCCATGAGGAAG,98.7
AAAGCGGTAATTTGCGCGGTGGGTGCAGATATCTAT,72.4
CATTGGCAGAACCCGATCGTGGGACAGAACACCAAC,62.8
